Published values gathered from unrelated publications.
Each line is one published result; not all experiments were run side by side.
Organism: Klebsiella pneumoniae

The MIC of `CC[C@H](C)[C@H](NC(=O)CN)C(=O)NCC(=O)N[C@@H](C)C(=O)N[C@H](C(=O)N[C@@H](CC(C)C)C(=O)N[C@@H](CCCCN)C(=O)N[C@H](C(=O)N[C@@H](CC(C)C)C(=O)N[C@H](C(=O)N[C@H](C(=O)NCC(=O)N[C@@H](CC(C)C)C(=O)N1CCC[C@H]1C(=O)N[C@@H](C)C(=O)N[C@@H](CC(C)C)C(=O)N[C@H](C(=O)N[C@@H](CO)C(=O)N[C@@H](Cc1c[nH]c2ccccc12)C(=O)N[C@H](C(=O)N[C@@H](CCCCN)C(=O)N[C@@H](CCCNC(=N)N)C(=O)N[C@@H](CCCCN)C(=O)N[C@@H](CCCNC(=N)N)C(=O)N[C@@H](CCC(N)=O)C(=O)N[C@@H](CCC(N)=O)C(N)=O)[C@@H](C)CC)[C@@H](C)CC)[C@@H](C)O)[C@@H](C)O)C(C)C)C(C)C` is reported as 16 µM (broth microdilution, MH medium; NCCP 16054; 16 h, 37 °C, growth inhibition over 99%).
The MIC of `CC(=O)N[C@@H](CCCCN)C(=O)N[C@@H](CCCCN)C(=O)N[C@@H](CC(C)C)C(=O)N[C@@H](CC(C)C)C(=O)N[C@@H](CCCCN)C(=O)N[C@@H](CC(C)C)C(=O)N[C@@H](CC(C)C)C(=O)N[C@@H](CCCCN)C(=O)N[C@@H](CCCCN)C(=O)N1CCC[C@H]1C(=O)N[C@@H](C)C(=O)N[C@@H](CCCCN)C(=O)N[C@@H](CC(C)C)C(=O)N[C@@H](CC(C)C)C(=O)N[C@@H](CCCCN)C(N)=O` is reported as > 80 µM (broth microdilution; ATCC 700603; 18 h, 37 °C, compound alone).
For `C[C@@H](O)[C@H]1C(=O)N2C(C(=O)O)=C(SCCN=CN)C[C@H]12`, the MIC was 64 µg/mL (K2; after induction, together with: ceftazidime-avibactam, avibactam fixed).
With `CC[C@H](C)[C@H](NC(=O)[C@H](CCCCN)NC(=O)[C@H](CCCCN)NC(=O)[C@H](Cc1ccccc1)NC(=O)[C@@H](NC(=O)[C@@H](NC(=O)[C@H](CCCNC(=N)N)NC(=O)[C@H](Cc1ccccc1)NC(=O)[C@@H](NC(=O)[C@H](CCCCN)NC(=O)[C@H](CCCCN)NC(=O)[C@@H](N)CCSC)[C@@H](C)CC)C(C)C)[C@@H](C)CC)C(=O)N[C@@H](CC(C)C)C(=O)N[C@@H](CCCCN)C(=O)N[C@@H](CCCNC(=N)N)C(=O)N[C@@H](CC(C)C)C(=O)N[C@H](C(=O)N[C@H](C(=O)O)C(C)C)[C@@H](C)CC` the MIC was 16 µg/mL (ATCC 700603; 16 to 18 h).
`CC[C@H]1OC(=O)[C@H](C)[C@@H](O[C@H]2C[C@@](C)(OC)[C@@H](O)[C@H](C)O2)[C@H](C)[C@@H](O[C@@H]2O[C@H](C)C[C@H](N(C)C)[C@H]2O)[C@](C)(O)C[C@@H](C)C(=O)[C@H](C)[C@@H](O)[C@]1(C)O` has an MIC of 64 µg/mL (broth microdilution; ATCC 43816 acrAB overexpressor).
`COc1ccc2ccc(O)c(/C=N/[C@H]3CCCC[C@H]3/N=C/c3ccc(OCCN4CCCCC4)cc3O)c2c1` gave an MIC of > 40 µM (bacterial growth, broth microdilution; carbapenem-resistant clinical isolate).
The MIC of `O=C(N[C@H](CO)[C@H](O)c1ccc([N+](=O)[O-])cc1)C(Cl)Cl` is reported as 4 µg/mL (broth microdilution; ATCC 43816 acrAB overexpressor).
`CC[C@H](C)[C@H](NC(=O)[C@H](CCCNC(=N)N)NC(=O)[C@H](CCCNC(=N)N)NC(=O)[C@@H](N)CCCNC(=N)N)C(=O)N[C@@H](CO)C(=O)N[C@@H](Cc1ccccc1)C(=O)N[C@@H](CC(C)C)C(=O)NCC(=O)N[C@@H](CO)C(=O)N[C@@H](CCCCN)C(=O)N[C@H](C(=O)N[C@H](C(=O)N[C@H](C(=O)N[C@@H](CC(C)C)C(=O)N[C@@H](CC(C)C)C(=O)N[C@@H](CCCCN)C(=O)N[C@@H](CCCNC(=N)N)C(=O)N[C@@H](CCCNC(=N)N)C(=O)N[C@@H](CCCNC(=N)N)C(=O)N[C@@H](CCCNC(=N)N)C(N)=O)C(C)C)C(C)C)C(C)C` has an MIC of 16 µM (broth microdilution; ATCC 13883; highest value reported).
For `CCCc1nc(Cl)c2c(c1O)C(=O)C1=C(O)[C@]3(O)C(=O)C(C(N)=O)=C(O)[C@@H](N(C)C)[C@@H]3C[C@@H]1C2.Cl`, the MIC was > 32 µg/mL (tet(A)-carrying).
`CN1C(=O)Cc2ccc(F)c(CCNC[C@H]3CN(c4ccc5c(n4)NC(=O)CO5)C(=O)O3)c21` has an MIC of 0.06 µg/mL (ATCC 13883).

Some of these lines once more:
The MIC of `CC[C@H](C)[C@H](NC(=O)CN)C(=O)NCC(=O)N[C@@H](C)C(=O)N[C@H](C(=O)N[C@@H](CC(C)C)C(=O)N[C@@H](CCCCN)C(=O)N[C@H](C(=O)N[C@@H](CC(C)C)C(=O)N[C@H](C(=O)N[C@H](C(=O)NCC(=O)N[C@@H](CC(C)C)C(=O)N1CCC[C@H]1C(=O)N[C@@H](C)C(=O)N[C@@H](CC(C)C)C(=O)N[C@H](C(=O)N[C@@H](CO)C(=O)N[C@@H](Cc1c[nH]c2ccccc12)C(=O)N[C@H](C(=O)N[C@@H](CCCCN)C(=O)N[C@@H](CCCNC(=N)N)C(=O)N[C@@H](CCCCN)C(=O)N[C@@H](CCCNC(=N)N)C(=O)N[C@@H](CCC(N)=O)C(=O)N[C@@H](CCC(N)=O)C(N)=O)[C@@H](C)CC)[C@@H](C)CC)[C@@H](C)O)[C@@H](C)O)C(C)C)C(C)C` is reported as 16 µM (broth microdilution, MH medium; NCCP 16054; 16 h, 37 °C, growth inhibition over 99%).
